# Measurements collected from several papers.
# Each line is one published result; not all experiments were run side by side. Numbers after ± are the reported error.
SMILES,cell line,test,setting,scale,quantity,value
CCCCCCCCCCCCCC[C@@H](O)[C@@H](O)[C@H](CO[C@H]1O[C@H](CO)[C@H](O)[C@H](O)[C@H]1O)NC(=O)CCCCCCCCc1ccccc1,human Vα24+ NKT cells,,"10 ng/mL, 24 h, HeLa-CD1d co-culture, unit not given",baseline: α-GalCer,IFN-γ secretion,1.56 ± 0.11
Cc1nc2ccccc2c(=O)n1N,LoVo,"cell growth or viability, LDH","200 µg/mL, 24 h",,viability,28%
CC(=O)OC[C@H]1O[C@@H](Sc2sc(C(=O)c3ccc(C)cc3)c(N)c2-c2nc3ccccc3s2)[C@H](OC(C)=O)[C@@H](OC(C)=O)[C@H]1OC(C)=O,NCI-H226,SRB,"10 µM, 48 h",baseline: untreated,growth,49.8%
C[C@@H](C(=O)Nc1ccc(Cn2cc(C(F)(F)F)ccc2=O)cc1)N(C)C,NIH3T3,"cell growth or viability, CCK-8",500 µM,,inhibition,49.4%
Cc1cc([C@H](C(=O)N2C[C@H](O)C[C@H]2C(=O)N[C@@H](CC(=O)N2CCC(N3CCC(C#Cc4ccc(C(=O)N[C@H]5C(C)(C)[C@H](Oc6ccc(C#N)c(Cl)c6)C5(C)C)cc4)CC3)CC2)c2ccc(-c3scnc3C)cc2)C(C)C)on1,MDA-MB-453,,"concentration not given, 24 h, with: 1 nM R1881",,phospho-AKT level,decreased
O=C(OCc1cccc(O)c1O)c1ccc(O)c(CO)c1,p47phox knockout mouse CMEC,Amplex red,"5 µM, 24 h",,H2O2 production,no effect
COc1ccc(S(=O)(=O)N(CC(=O)O)c2c(C)c(C)c(N(CC(=O)O)S(=O)(=O)c3cccnc3)c(C)c2C)cc1,H9c2,flow cytometry DCFH-DA,"10 µM, 12 h, with: LPS 1 µg/mL",,ROS level,decreased
O=C(c1ccncc1)N1N=C2/C(=C/c3ccc4ccccc4c3)CCCC2C1c1ccc2ccccc2c1 (centres unmarked),human erythrocytes,HRBC membrane stabilization,concentration not given,,membrane protection,86.2%
COc1ccc(NC(=O)COc2ccc(/C=C/C(C)=N/O)cc2OC)cc1,SH-SY5Y,flow cytometry,"20 µM, with: amyloid beta 10 µM",,IL-6 expressing cells,23.2%
O=C1Nc2ccc(F)cc2C1=Cc1c(Cl)[nH]c2c1ccc1ccccc12,NCI-60 panel mean,,48 h,,TGI,8.91 µM
CC(CCC(=O)NCc1ccc(C(=O)Nc2ccccc2N)cc1)C1CCC2C3C(O)CC4CC(O)CCC4(C)C3CCC12C (centres unmarked),cystic cholangiocytes (human),immunoblot,"2 µM, 24 h",,histone H3K9 acetylation,increased
O=C1C(=NN=c2[nH]ccs2)c2cc(Cl)ccc2N1CCn1ncc2c(=O)[nH]cnc21,BALB/3T3 and HepG2,cell growth,,baseline: IC50 BALB/3T3 over HepG2,selectivity ratio,2.8
COc1cc(CNC(=O)C[C@H](C)CCC=C(C)C)ccc1O,NCI-H226,SRB,"10 µM, 48 h",,growth percent,101%
CC(C)[C@H](NC(=O)[C@@H]1CCCN1C(=O)[C@H](CCCNC(=N)N)NC(=O)[C@H](CS)NC(=O)[C@H](Cc1c[nH]c2ccccc12)NC(=O)[C@H](CCCNC(=N)N)NC(=O)[C@@H](Cc1ccccc1)NC(=O)[C@H](Cc1c[nH]cn1)NC(=O)[C@H](CCC(=O)O)NC(=O)[C@H](CS)NC(=O)[C@H](CS)NC(=O)CCNC(=O)[C@@H]1CC(=O)N[C@@H](CCCNC(=N)N)C(=O)NCC(=O)N[C@@H](CC(=O)O)C(=O)N[C@H](Cc2ccc(O)cc2)C(=O)N1)C(N)=O,B16/F1,,"0.1 µM, 3 h, 37 °C, read 5 days later",baseline: untreated,survival decrease,71%
CC(C)=CCc1cc([C@@H]2CC(=O)c3c(O)cc(O)c(CC=C(C)C)c3O2)cc(CC=C(C)C)c1O,3T3-L1 adipocytes,activator,up to 100 µM,,glucose consumption,inactive
COc1cc(CNC(=O)C[C@H](C)CCC=C(C)C)ccc1OCc1cn(-c2ccccc2)nn1,UACC-62 melanoma cells,SRB,"10 µM, 48 h",,growth percent,64.2%
Cc1ccc(NC(=O)c2c(C)oc3ccc(O)c(CN4CCCCCC4)c23)cc1,CA46,,concentration not given,,MYC protein level,no effect
COc1cc(CNC(=O)C[C@H](C)CCC=C(C)C)ccc1OCc1cn(-c2ccccc2F)nn1,NCI-H226,SRB,"10 µM, 48 h",,growth percent,73.3%
NC(CSSCC(N)C(=O)N1CCn2cc(-c3ccccc3)nc2C1CC1CCCCC1)C(=O)N1CCn2cc(-c3ccccc3)nc2C1CC1CCCCC1 (centres unmarked),MP41,annexin V/PI flow cytometry,"10 µM, 48 h",,apoptotic cells,22.4%
COc1cc(CNC(=O)C[C@H](C)CCC=C(C)C)ccc1OCc1cn(-c2ccccc2Cl)nn1,NCI-H226,SRB,"10 µM, 48 h",,growth percent,59.7%
Cc1nc(C)c(C=[N+]([O-])C(C)(C)C)nc1C,N2a,"luciferase reporter, item: PGC-1α","300 µM, with: MPP+",,promoter activity,84.3%
CC/C=C\C/C=C\C/C=C\C/C=C\C/C=C\C/C=C\CCC(=O)Nc1ccn(C2OC(CO)C(O)C2(F)F)c(=O)n1 (centres unmarked),SF-295,NCI60 screen,,,TGI,10.9 µM
C[C@H](CC(=O)C[C@@H](C)[C@H]1C[C@H](O)[C@@]2(C)C3=C(C(=O)C[C@]12C)[C@@]1(C)CCC(=O)C(C)(C)[C@@H]1C[C@@H]3O)C(=O)O,3T3-L1 adipocytes,,6.25 µg/mL,,glucose consumption,11.3 ± 0.72 mmol/L
COc1cc(CNC(=O)C[C@H](C)CCC=C(C)C)ccc1OCc1cn(-c2ccc(F)cc2)nn1,UACC-62 melanoma cells,SRB,"10 µM, 48 h",,growth percent,64.4%
COc1ccc([C@@H]2CC(=O)c3c(O)cc(O[C@@H]4O[C@H](CO[C@@H]5O[C@@H](C)[C@H](O)[C@@H](O)[C@H]5O)[C@@H](O)[C@H](O)[C@H]4O)cc3O2)cc1O,A549,"cell migration, scratch","100 µg/mL, 24 h",,gap closure,4.69 ± 0.63%
COc1ccc2c(c1CC=C(C)C)O[C@H]1c3cc4c(cc3OC[C@@]21O)OC(C)(C)C=C4,3T3-L1 adipocytes,activator,up to 100 µM,,glucose consumption,inactive
COc1cc(CNC(=O)C[C@H](C)CCC=C(C)C)ccc1OCc1cn(-c2ccc(Br)cc2)nn1,NCI-H460,SRB,"10 µM, 48 h",,growth percent,74.2%
CCCCCCCCCCCCCCOC(=O)Nc1ccn([C@@H]2O[C@H](CO)[C@@H](O)C2(F)F)c(=O)n1,AsPC-1 cells,Transwell invasion,"1 µM, 48 h",,invading cells,62 ± 20 cells per field
COc1cc(CNC(=O)C[C@H](C)CCC=C(C)C)ccc1OCc1cn(-c2ccc([N+](=O)[O-])cc2)nn1,NCI-H226,SRB,"10 µM, 48 h",,growth percent,80.1%
CCOP(=O)(OCC)C(Cc1c(F)c(F)c(Sc2ccc(OC)cc2)c(F)c1F)Nc1ccccc1 (centres unmarked),T98G,,50 µM,baseline: untreated,reduction of clonogenic potential,25%
COc1ccc(C2=Nn3c(NN=C4C(=O)N(C)c5ccc(Br)cc54)nnc3SC2)cc1,SF-295,"cell growth or viability, SRB",10 µM,,inhibition,10%
O=[N+]([O-])/C(Br)=C/c1ccco1,KB,,mean of three Leishmania species,baseline: KB CC50 over Leishmania IC50,selectivity index,8.7
CC(=C(c1ccc(O)cc1)c1ccc(Cl)cc1)c1ccc(Cl)cc1,SF-295,"cell growth or viability, SRB",,,GI50,0.69 µM
COc1ccc2c(c1)/C(=N\Nc1nnc3n1N=C(c1ccccc1)CS3)C(=O)N2,NCI-60 cell line panel,,"10 µM, growth inhibition above 10%",,number of sensitive cell lines,52
C=C(CC)C(=O)c1ccc(OCC(=O)NCCNC(=O)COc2ccc(C(=O)C(=C)CC)c(Cl)c2Cl)c(Cl)c1Cl,SGC-7901/DDP,"cell growth, CCK-8",72 h,,IC10,~1.2 µM
NS(=O)(=O)NCC(F)(F)c1ccccc1F,rat hippocampal neurons,neuroprotection,"medium without antioxidants, with: glutamate 30 µM for 5 min",,EC50,0.07 nM
COC(=O)[C@H]1[C@H]2C[C@H]3O[C@@]4(CCN3C[C@H]2C[C@@H](OC(=O)c2cc(OC)c(OC)c(OC)c2)[C@@H]1OC)C(=O)Nc1cc(OC)c(-c2ccc(F)cc2)cc14,RS4;11,annexin V/PI flow cytometry,"10 µM, 72 h",,late apoptotic cells,53.7 ± 30.2%
CCC(=C(c1ccc(Cl)cc1)c1ccc(OCCCN(C)C)cc1)c1ccc(OC)cc1,SNB-75,"cell growth or viability, SRB",,,GI50,6.02 µM
O=C(N1CCCC1)n1cc(-c2ccc(-c3ccccc3)cc2)nn1,mouse T-cells,"N-terminal labeled proteins, N-terminal enrichment proteomics, item: S100A4","1 nM, 6 h",baseline: DMSO,SILAC ratio,1.05 ± 0.08
CC(C)=CCc1c(O)ccc2c1O[C@H]1c3cc4c(cc3OC[C@@H]21)OC(C)(C)C=C4,3T3-L1 adipocytes,activator,up to 100 µM,,glucose consumption,inactive
O=C(NN1C(=O)c2ccccc2NC1c1ccc([N+](=O)[O-])o1)c1ccc([N+](=O)[O-])cc1 (centres unmarked),mouse LDR cells,MTS,"dose not given, 4 days",,cell proliferation,no effect
CC(=O)OC[C@H]1O[C@@H](Sc2sc(C(=O)c3ccc(Br)cc3)c(N)c2-c2nc3ccccc3s2)[C@H](OC(C)=O)[C@@H](OC(C)=O)[C@H]1OC(C)=O,SNB-75,SRB,"10 µM, 48 h",baseline: untreated,growth,74.5%
COc1ccc([C@@H]2CC(=O)c3c(O)cc(O[C@@H]4O[C@H](CO[C@@H]5O[C@@H](C)[C@H](O)[C@@H](O)[C@H]5O)[C@@H](O[C@H]5O[C@H](CO)[C@@H](O)[C@H](O)[C@H]5O)[C@H](O)[C@H]4O)cc3O2)cc1O,A549,Matrigel Transwell invasion,"150 µg/mL, 48 h",,invasion,24.4%
O=Cc1c(O)ccc2ccccc12,HUVEC,"RNA sequencing, item: PTPRH","75 µM, 24 h",baseline: DMSO,log2 fold change,3.2
O=C1Nc2ccc(Cl)cc2C1=Cc1c(Cl)[nH]c2c1ccc1ccccc12,NCI-60 panel mean,,48 h,,TGI,8.32 µM
Cc1ccc(C(C)C)cc1.Oc1ccccc1C=NNC1=Nc2ccccc2-c2[nH]c3ccc(Br)cc3c2C1.[Cl-].[Cl][Os+],SW480,annexin V/PI flow cytometry,"20 µM, early plus late apoptosis",,apoptotic cells,57%
COc1cc2c(OC3OCC(OC)C(OC)C3OC(=O)c3ccc(Br)cc3)c3c(c(-c4ccc5c(c4)OCO5)c2cc1OC)C(=O)OC3 (centres unmarked),FaDu,qRT-PCR,"concentration not given, 72 h",,Bax/Bcl-2 mRNA ratio,increased

# Some of these lines once more:
SMILES,cell line,test,setting,scale,quantity,value
O=C(c1ccncc1)N1N=C2/C(=C/c3ccc4ccccc4c3)CCCC2C1c1ccc2ccccc2c1 (centres unmarked),human erythrocytes,HRBC membrane stabilization,concentration not given,,membrane protection,86.2%
CC(CCC(=O)NCc1ccc(C(=O)Nc2ccccc2N)cc1)C1CCC2C3C(O)CC4CC(O)CCC4(C)C3CCC12C (centres unmarked),cystic cholangiocytes (human),immunoblot,"2 µM, 24 h",,histone H3K9 acetylation,increased
COc1cc(CNC(=O)C[C@H](C)CCC=C(C)C)ccc1OCc1cn(-c2ccccc2)nn1,UACC-62 melanoma cells,SRB,"10 µM, 48 h",,growth percent,64.2%
CCCCCCCCCCCCCCOC(=O)Nc1ccn([C@@H]2O[C@H](CO)[C@@H](O)C2(F)F)c(=O)n1,AsPC-1 cells,Transwell invasion,"1 µM, 48 h",,invading cells,62 ± 20 cells per field
O=C1C(=NN=c2[nH]ccs2)c2cc(Cl)ccc2N1CCn1ncc2c(=O)[nH]cnc21,BALB/3T3 and HepG2,cell growth,,baseline: IC50 BALB/3T3 over HepG2,selectivity ratio,2.8
